{"data": "Published values of several laboratories", "note": "Every numbered part comes from another study and shows a few of its results, in no order."}
{"data": "Sample 1", "target": "Replicase polyprotein 1ab, nsp13 helicase (rep, Severe acute respiratory syndrome coronavirus 2, UniProt P0DTD1)", "mode": "inhibitor", "tested at": "20 µM"}
{"Structure (SMILES)": "C[N+]1(CC2CC2)[C@@H]2C[C@@H](OC(=O)[C@H](CO)c3ccccc3)C[C@H]1[C@@H]1O[C@@H]12 (some centres unmarked)", "inhibition": "9.74%"}
{"Structure (SMILES)": "O=c1cc(-c2ccc(O)c(O)c2)oc2cc(O)cc(O)c12", "inhibition": "38.6%"}
{"Structure (SMILES)": "COc1cc(C=O)ccc1O", "inhibition": "6.74%"}
{"Structure (SMILES)": "O=C(O)Cn1c2c(c3cc(F)ccc31)CN(C(=O)c1cccc3ccccc13)CC2", "inhibition": "6.26%"}
{"Structure (SMILES)": "COc1cc(/C=C/C(=O)O)ccc1O", "inhibition": "4.55%"}
{"Structure (SMILES)": "C=C1CC/C=C(/C)CC[C@@H]2[C@@H]1CC2(C)C", "inhibition": "10.5%"}
{"Structure (SMILES)": "O=C(O)COCCN1CCN(C(c2ccccc2)c2ccc(Cl)cc2)CC1 (centres unmarked)", "inhibition": "5.33%"}
{"Structure (SMILES)": "CC(C(=O)O)c1cccc(C(=O)c2ccccc2)c1 (centres unmarked)", "inhibition": "1%"}
{"Structure (SMILES)": "O=S(=O)(c1ccccc1F)N1CCOc2c(N3CCNCC3)cccc21", "inhibition": "41.8%"}
{"Structure (SMILES)": "O[C@H]1CC[C@H](Nc2nc(-c3ccccc3)nc3[nH]ccc23)CC1", "inhibition": "5.08%"}
{"Structure (SMILES)": "CC(=O)c1ccc2c(c1)N(CCCN(C)C)c1ccccc1S2", "inhibition": "2.54%"}
{"Structure (SMILES)": "CC(C(=O)O)c1ccc(N2Cc3ccccc3C2=O)cc1 (centres unmarked)", "inhibition": "-1.34%"}
{"Structure (SMILES)": "CS(=O)(=O)c1ccc(-c2cnc(NCc3ccco3)n3cnnc23)cc1", "inhibition": "13.6%"}
{"Structure (SMILES)": "O=C1C[C@@H]2OCC=C3CN4CC[C@]56c7ccccc7N1[C@H]5[C@H]2[C@H]3C[C@H]46", "inhibition": "-1.98%"}
{"Structure (SMILES)": "C=CC(=O)Nc1cccc(Nc2nc(Nc3ccc(Oc4ccnc(C(=O)NC)c4)cc3)ncc2F)c1", "inhibition": "2.8%"}
{"Structure (SMILES)": "CC[N+](CC)(CC)CCOc1ccc(/C=C/c2ccccc2)cc1", "inhibition": "2.76%"}
{"Structure (SMILES)": "CN(C)CCCN1c2ccccc2Sc2ccccc21", "inhibition": "-0.55%"}
{"Structure (SMILES)": "CCn1c(=O)/c(=C2\\Sc3ccccc3N2C)s/c1=C\\c1cccc[n+]1CC", "inhibition": "76.6%"}
{"Structure (SMILES)": "C=CC[C@]1(O)CC[C@H]2[C@@H]3CCC4=CC(=O)CCC4=C3C=C[C@@]21C", "inhibition": "2.23%"}
{"Structure (SMILES)": "CC(C)OC(=O)OCOP(=O)(CO[C@H](C)Cn1cnc2c(N)ncnc21)OCOC(=O)OC(C)C", "inhibition": "8.05%"}
{"Structure (SMILES)": "Cn1c(=O)cc(N2CCC[C@@H](N)C2)n(Cc2ccccc2C#N)c1=O", "inhibition": "-0.08%"}
{"Structure (SMILES)": "c1ccc(CN2CCC3(CCc4ccccc43)CC2)cc1", "inhibition": "-3.36%"}
{"Structure (SMILES)": "N[C@@H](CSCC(=O)O)C(=O)O", "inhibition": "1.96%"}
{"Structure (SMILES)": "CC(=C(CCO)SSCC1CCCO1)N(C=O)Cc1cnc(C)nc1N (stereo in doubt)", "inhibition": "1.91%"}
{"Structure (SMILES)": "Oc1c(Cl)cc(Cl)c2cccnc12", "inhibition": "3.78%"}
{"data": "Sample 2", "target": "Replicase polyprotein 1ab, main protease (rep, Severe acute respiratory syndrome coronavirus 2, UniProt P0DTD1)", "observed": "enzyme activity", "mode": "inhibitor", "tested at": "20 µM", "setting": "hit confirmation"}
{"SMILES": "C=CCN1CCc2cc(O)c(O)cc2C(c2ccccc2)C1 (centres unmarked)", "inhibition [%]": 59.1}
{"SMILES": "COC(=O)C1=C(C)NC(C)=C(C(=O)O[C@H]2CCN(Cc3ccccc3)C2)[C@H]1c1cccc([N+](=O)[O-])c1", "inhibition [%]": -5.1}
{"SMILES": "CCO/N=C(/C(=O)N[C@@H]1C(=O)N2C(C(=O)O)=C(Sc3nc(-c4cc[n+](C)cc4)cs3)CS[C@H]12)c1nsc(NP(=O)(O)O)n1", "inhibition [%]": 1.4}
{"SMILES": "CCOC(=S)SSC(=S)OCC", "inhibition [%]": 94.6}
{"data": "Sample 3", "target": "Ras GTPase-activating protein-binding protein 1, RRM domain (G3BP1, Homo sapiens, UniProt Q13283)", "technique": "RNA Bind-n-Seq", "molecule type": "RNA", "sample": "in vitro", "tested at": "1 µM", "setting": "whole 134-nt RNA, ends assumed", "added": "150 mM KCl", "relative to": "input library", "reading": "higher = stronger binding", "chain of UniProt Q13283 (whole entry, looked up)": "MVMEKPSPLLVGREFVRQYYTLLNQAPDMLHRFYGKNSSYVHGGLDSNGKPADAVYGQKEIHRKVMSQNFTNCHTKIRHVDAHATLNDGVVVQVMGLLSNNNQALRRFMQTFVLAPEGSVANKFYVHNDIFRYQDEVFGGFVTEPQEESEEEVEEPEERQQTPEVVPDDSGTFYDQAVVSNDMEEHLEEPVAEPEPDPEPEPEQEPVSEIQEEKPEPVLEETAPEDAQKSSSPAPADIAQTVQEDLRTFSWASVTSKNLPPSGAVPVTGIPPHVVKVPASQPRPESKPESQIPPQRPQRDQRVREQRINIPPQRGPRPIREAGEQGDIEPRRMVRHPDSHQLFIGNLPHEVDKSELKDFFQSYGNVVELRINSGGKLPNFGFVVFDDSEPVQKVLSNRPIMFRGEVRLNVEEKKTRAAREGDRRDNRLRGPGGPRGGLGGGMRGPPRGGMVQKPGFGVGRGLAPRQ"}
{"Oligonucleotide": "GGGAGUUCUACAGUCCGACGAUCCCUCAAGUCCUGUGCUACACAUCGUAUGUACCGAAUCGGAGGGAGGGGAGGGAAAGUAUUAUGUUACGCCGUUCGGAUCUGCACUUCCAGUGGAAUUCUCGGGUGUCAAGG", "log2 enrichment": 0.14}
{"Oligonucleotide": "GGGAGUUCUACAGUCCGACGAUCCUGUGCUACACAUCGUAUGUACCGAAUCGGGAAAAAAAGGGUUUUUUUGGGUUUUUUUGGGAAAGUAUUAUGUUACGCCGUUCGGAUCUGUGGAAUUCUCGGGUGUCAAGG", "log2 enrichment": -0.366}
{"Oligonucleotide": "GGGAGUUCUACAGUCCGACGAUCCCUGUGCUACACAUCGUAUGUACCGAAUCGGCCCCCCCGGGCCCCCCCGGCCCCCCCGGGAAAGUAUUAUGUUACGCCGUUCGGAUCUGCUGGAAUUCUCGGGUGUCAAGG", "log2 enrichment": -0.499}
{"Oligonucleotide": "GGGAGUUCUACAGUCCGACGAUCCCUGUGCUACACAUCGUAUGUACCGAAUCGGGGAAAAAGGGGAAAAAGGGGUUUUUGGGGAAAGUAUUAUGUUACGCCGUUCGGAUCUGCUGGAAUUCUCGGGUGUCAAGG", "log2 enrichment": 0.842}
{"Oligonucleotide": "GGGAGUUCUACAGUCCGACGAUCAGUCCUGUGCUACACAUCGUAUGUACCGAAUCGGCCCCCGGGCCCCCGGCCCCCGGGAAAGUAUUAUGUUACGCCGUUCGGAUCUGCACUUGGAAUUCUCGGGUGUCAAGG", "log2 enrichment": -0.474}
{"Oligonucleotide": "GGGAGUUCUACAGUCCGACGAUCGCAGGAAGUAAAAACAAAUGGAAAUGAUUCGGAUAGUGGCAGGGGUGGGGGUUGCUAAGGAAAGGGUGGGAUGGGAGUGGGUAAAGAGUUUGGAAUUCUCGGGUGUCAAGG", "log2 enrichment": 1.19}
{"Oligonucleotide": "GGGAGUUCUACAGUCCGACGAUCUCAAGUCCUGUGCUACACAUCGUAUGUACCGAAUCGGGUUGGGGUUGGGGUUGGGAAAGUAUUAUGUUACGCCGUUCGGAUCUGCACUUCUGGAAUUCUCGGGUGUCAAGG", "log2 enrichment": 0.969}
{"Oligonucleotide": "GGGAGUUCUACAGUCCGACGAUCCACAGACAACACGCACCCACACAGACACAGAGGGAAGGGGUUGGGAUGGGGACAGGGUGCACAGCAGGGCGGGGUAGGAAAACAGCCCCUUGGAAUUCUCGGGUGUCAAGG", "log2 enrichment": -0.151}
{"data": "Sample 4", "cell line": "HEK-293T", "observed": "pseudovirus infection", "organism": "VSV pseudotyped with SARS-CoV-2 spike", "tested at": "10 µM", "time": "16 h", "relative to": "vehicle-treated"}
{"Compound": "COc1c(N2CCNC(C)C2)c(F)cc2c(=O)c(C(=O)O)cn(C3CC3)c12 (centres unmarked)", "GFP-positive cells [%]": 81.7}
{"Compound": "CC[C@@H]([C@H](C)O)n1ncn(-c2ccc(N3CCN(c4ccc(OC[C@@H]5CO[C@@](Cn6cncn6)(c6ccc(F)cc6F)C5)cc4)CC3)cc2)c1=O", "GFP-positive cells [%]": 107}
{"Compound": "C[C@]12Cc3c[nH]nc3C[C@@H]1CC[C@@H]1[C@@H]2CC[C@@]2(C)[C@H]1CC[C@]2(C)O", "GFP-positive cells [%]": 134}
{"Compound": "COc1cc([C@@H]2c3cc4c(cc3[C@@H](O[C@@H]3O[C@@H]5CO[C@@H](C)O[C@H]5[C@H](O)[C@H]3O)[C@H]3COC(=O)[C@H]23)OCO4)cc(OC)c1O", "GFP-positive cells [%]": 61.1}
{"Compound": "CC(=O)O[C@H]1C(=O)[C@@]2(C)[C@H]([C@H](OC(=O)c3ccccc3)[C@]3(O)C[C@H](OC(=O)[C@H](O)[C@@H](NC(=O)c4ccccc4)c4ccccc4)C(C)=C1C3(C)C)[C@]1(OC(C)=O)CO[C@@H]1C[C@@H]2O", "GFP-positive cells [%]": 131}
{"data": "Sample 5", "target": "RING finger protein unkempt homolog, zinc fingers 1-6, GST-SBP tag (UNK, Homo sapiens, UniProt Q9C0B0, residues 30-357)", "technique": "RNA Bind-n-Seq", "molecule type": "RNA", "sample": "in vitro", "tested at": "not given", "setting": "RNA with constant flanks, human and mouse sites, ends assumed", "relative to": "input RNA pool", "reading": "higher = stronger binding", "chain of UniProt Q9C0B0 (30-357, looked up)": "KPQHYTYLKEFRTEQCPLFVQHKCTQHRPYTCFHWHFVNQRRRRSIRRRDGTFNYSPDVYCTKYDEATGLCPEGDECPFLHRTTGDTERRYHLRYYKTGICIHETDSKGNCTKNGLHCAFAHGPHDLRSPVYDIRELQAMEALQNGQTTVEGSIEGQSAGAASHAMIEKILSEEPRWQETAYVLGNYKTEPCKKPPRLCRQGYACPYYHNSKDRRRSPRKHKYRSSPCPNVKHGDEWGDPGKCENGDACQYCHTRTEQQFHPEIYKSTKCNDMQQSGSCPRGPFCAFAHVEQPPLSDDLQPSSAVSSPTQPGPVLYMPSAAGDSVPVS"}
{"Oligonucleotide": "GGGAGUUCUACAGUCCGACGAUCUCUGGCUACUGAUGCAGCACAAGAGACGUGUUUUUUUUUUAAAUGAGGAAAGACGCUGUUUAGGUUUGGUUUGGUUUCAUUUUAAUUACUCUAGGGAAAACACUGACGAAUGGUCAGCGCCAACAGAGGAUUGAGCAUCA", "bound/input enrichment [ratio]": 1.42}
{"Oligonucleotide": "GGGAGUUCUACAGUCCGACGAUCUGUGAGUGAGGGUAUGUGCACCUAAGUGUGUACAUGUGUGUAUGUUGUGAAAGUGUCUGUGCACAUGAAUGUUUGUGUGUGUGUGAACUCUUUCUUACUGCUGGAAGUCACAGAAUUCAUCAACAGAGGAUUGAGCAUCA", "bound/input enrichment [ratio]": 0.13}
{"Oligonucleotide": "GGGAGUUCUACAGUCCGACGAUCCCUCGUCCGGUGAUGACAUCAGAGGAUAGUGGCUUGUUCAGCCCUAUUCGAACCUCAGCUUUUAGUCCUCCUGGAAGCUGUACUCCUGCUGAAUGGUUUUGCCAAACAGAUACUAGUGAACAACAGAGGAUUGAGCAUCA", "bound/input enrichment [ratio]": 0.274}
{"Oligonucleotide": "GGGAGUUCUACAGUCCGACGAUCGCUGAAGAGAGGAGGAUGAUCUAGGACGCUGUCCGGGUGGACGGCCACGCCGCAAGACGCGGCCCUGCAGGAGUGACUAGCACGGUCAGGGCGGGAGCCACGAGCGCCUCUGGGAACCUCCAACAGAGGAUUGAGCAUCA", "bound/input enrichment [ratio]": 0.1}
{"Oligonucleotide": "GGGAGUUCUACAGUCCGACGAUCAGGAAAUUAUCAGUAUUAGGCAAAGAUGGAAAGCCAGUUUCUGAAUAUAUUAUAAAAACAGAUGAGAAUGUUCGUAAAGAAAACAACAAAAAAGAGAGACGCUUGUCAGCUGAAAAAACUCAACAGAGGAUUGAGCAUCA", "bound/input enrichment [ratio]": 0.511}
{"Oligonucleotide": "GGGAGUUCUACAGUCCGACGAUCCAAGGGGAAGACUUCAGUAGAACAUUUAAUGACCAUAAGCAAAAAUACUUGCAGCUCCAGCAAGAAAAAGAACAAGAACUUUCUAAGCUAAAAGAGACUGUAUACAAUUUGAGAGAAGAGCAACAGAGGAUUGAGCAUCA", "bound/input enrichment [ratio]": 0.373}
{"Oligonucleotide": "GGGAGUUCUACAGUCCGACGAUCUUUGAAGAAUAUGUAAUUGUUGGUUUAAACUGGCUUCAAGCAGUAAUAAAAAGGUGGUGGUCAGAACUCUCAUCUACGUCAGAAAUUAUAAGUGAUGGAAAUAUUAAGAUUUUAAAGCAACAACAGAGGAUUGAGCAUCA", "bound/input enrichment [ratio]": 0.802}
{"Oligonucleotide": "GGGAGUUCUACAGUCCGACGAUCGGCGCGCGGAGGGGAAAUGGCUGCCGAAAACAAGCCGGAAGAUGAUCAUGGGAACAGCAAUAGUAGUCAUGUAAAAAUCUUUUUACCGAAAAAGCUGCUUGAAUGUCUGCCGAAAUGUUCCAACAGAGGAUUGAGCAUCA", "bound/input enrichment [ratio]": 0.174}
{"note": "Some of these lines once more (sample 1):"}
{"Structure (SMILES)": "CN(C)CCCN1c2ccccc2Sc2ccccc21", "inhibition": "-0.55%"}
{"Structure (SMILES)": "CCn1c(=O)/c(=C2\\Sc3ccccc3N2C)s/c1=C\\c1cccc[n+]1CC", "inhibition": "76.6%"}
{"Structure (SMILES)": "C=CC[C@]1(O)CC[C@H]2[C@@H]3CCC4=CC(=O)CCC4=C3C=C[C@@]21C", "inhibition": "2.23%"}
{"Structure (SMILES)": "CC(C)OC(=O)OCOP(=O)(CO[C@H](C)Cn1cnc2c(N)ncnc21)OCOC(=O)OC(C)C", "inhibition": "8.05%"}
{"Structure (SMILES)": "Cn1c(=O)cc(N2CCC[C@@H](N)C2)n(Cc2ccccc2C#N)c1=O", "inhibition": "-0.08%"}
{"Structure (SMILES)": "c1ccc(CN2CCC3(CCc4ccccc43)CC2)cc1", "inhibition": "-3.36%"}
